Measurements pooled from the literature.
Each line is one published result; not all experiments were run side by side. Several values in a cell are separate wells, animals, samples, runs or records. ± marks the error that the study gave.

CN(CCCN1CCN(C(=O)CN2CCN(CC(=O)[O-])CCN(CC(=O)[O-])CCN(CC(=O)[O-])CC2)CC1)c1ccc2nccc(C(=O)NCC(=O)N3CC(F)(F)C[C@H]3C#N)c2c1.[68Ga+3] — uptake (mice, HT-1080.hFAP and HT-1080 wild-type xenografts, intestine; iv, 500 pmol, 1 h post injection): 0.3 ± 0.1 %IA/g
O=C(O)CCC(=O)O.[2H]C([2H])([2H])Oc1cc(C)c2[nH]ccc2c1CN1CC[C@@H](C2CC2)C[C@H]1c1ccc(C(=O)O)cc1 — TEAE urine leukocyte positive (healthy Chinese subjects; 600 mg, single ascending dose): 0%
Cc1cc(=O)n(-c2ccccc2)n1C — loss by adsorption (empty perfusion, no placenta; maternal circuit tubing; 5 µM, 360 min; reference: initial amount): 8.2 ± 4.3%
CC(C)C[C@H](NC(=O)[C@H](CC(C)C)NC(=O)C(C)(C)NC(=O)[C@@H](NC(=O)[C@H](CCC1CCCCC1)NC(=O)[C@@H]1C[C@H](C)CN1C(=O)c1ccc(F)cc1)[C@H](O)C(C)C)C(=O)NC(C)(C)C(=O)NC(C)(C)C(=O)NCCC(=O)N[C@@H](C)CN(C)C — alpha-helix content (circular dichroism; phosphate buffer; pH 7.4, 20 °C): 94.2%
CN(C(=O)n1cnc(-c2ccc[n+]([O-])c2)c1)[C@H]1CC[C@H](O)CC1 — tissue concentration (rat, hippocampus; oral, 10 mg/kg single dose, 24 h): 13.2 ± 0.2 ng/g
Cc1noc(C)c1Cn1cc(N2C(=O)CN(Cc3cccc(O)c3)C2=O)cn1 — remaining parent (pooled human liver microsomes; 50 µM, 30 min, pH 7.4): 59 % peak area
COc1ccc([C@@H](O)c2cc(-c3ncnc4cc(N5CCOCC5)ccc34)c(F)cc2Cl)nn1 — drug-related gastrointestinal AE (locally advanced rectal cancer patients; 100 mg, added: capecitabine and radiotherapy): 83%
COc1ccc2nc(-c3ccccn3)c(N(C)c3ccc(F)cc3)n2c1 — CL/F (CD1 mouse, male, fasted, plasma; oral, 50 mg/kg, added: ABT 50 mg/kg): 634 mL/min/kg
CCO — priapism incidence (human; concentration not given): 11.1%
Cl.[2H]C([2H])([2H])CC(=O)c1cnc(NC(=O)C2CC2)cc1Nc1cccc(-c2ncn(C([2H])([2H])[2H])n2)c1OC — AUC(0-24 h) (geometric mean; human; oral, 10 mg single dose, fasted, liquid): 675 ng·h/mL
CCN1CCN(Cc2ccc(Nc3ncc(F)c(-c4cc(F)c5nc6n(c5c4)[C@H](C)CCC6)n3)nc2)CC1 — Tmax (human, plasma; 50 mg multiple dosing, median): 4 h
Cc1cc(-c2nccc3c2ccn3CC(=O)Nc2ccc(-c3cnccn3)cn2)ccn1 — accumulation ratio (refers to: Cmax; human, plasma; oral, 15 mg once daily; reference: day 16 over day 1): 1.08
CC(=O)N(C)C1CCN(c2cc(F)cc(NC(=O)c3cc4c(F)ccc(C)c4[nH]3)c2)C1 (stereo not drawn) — Vz (CD1 mouse; intravenous, 1 mg/kg): 1.5 L/kg
NC1(C(=O)N[C@@H](CCO)c2ccc(Cl)cc2)CCN(c2nc[nH]c3nccc2-3)CC1 — incidence of Leukopenia (metastatic CRPC patients; 320 mg b.i.d., any grade, treatment-related, added: enzalutamide 160 mg daily): 0%
FC(F)(F)c1ccc(CNc2ccc(Cc3c[nH]c4ncc(Cl)cc34)cn2)cn1 — decreased appetite incidence (patients with advanced solid tumours; oral, 1000 mg/day, non-TGCT cohort, all grades): 39%
N#C[C@@]1(c2ccc3c(N)ncnn23)O[C@H](CO)[C@@H](O)[C@H]1O — lag time (male beagle dogs, plasma; oral capsule, 6.5 mg/kg): 0 h
CNc1ccc(-c2nc3ccc(O)cc3s2)cc1 [carbon-11 labelled] — SUV (ex vivo biodistribution; B6SJL mouse, normal, hippocampus; intravenous, 30 min): 0.157 ± 0.055
Cc1cc(NC2CCN(C(=O)OC3CCN(C(=O)/C=C/CN(C)C)C3)CC2)n2ncc(C(C)C)c2n1 (stereo not drawn) — patients with adverse event (Phase I dose escalation CTCAE v4.0, refers to: maculo-papular rash; patients with advanced solid tumours; dose not given, QD dosing any grade): 7%
C=CC(=O)NC1CCN(c2ncc3ncnc(Nc4ccc(Oc5ccc6c(c5)ncn6C)c(C)c4)c3n2)CC1 — dose-normalised AUC(0-t) (healthy male volunteers, plasma; oral, 60 mg, tablet): 220 nmol·h/L/mg
CC1(CNC(=O)c2ccc(C#CC#Cc3ccccc3)cc2)NC(=O)NC1=O (stereo not drawn) — logP (octanol/buffer; pH 11): 2.4
C[C@@H]1Cc2c(ccc3[nH]ncc23)[C@@H](c2ccc(NC3CN(CCCF)C3)cn2)N1CC(F)(F)F — total brain concentration (mouse, non-tumour-bearing, brain; oral, dose not given, 7 days daily, added: fulvestrant s.c.): 0 nmol/L
O=C(O)CNC(=O)c1c(O)cc(CCc2ccccc2)n2ncnc12 — logP (shake-flask, potentiometric; 1-octanol/water): 3.2
N#CN1C[C@H](n2nc(-c3ccc(Oc4ccc(Cl)cn4)cc3)c(C(N)=O)c2N)CCC12CC2 — AUC(0-inf), geometric mean (human, fed, plasma; oral, 600 mg, i=11): 19000 ng·h/mL
Cc1ccc([C@@H]2O[C@H](CO)[C@@H](O)[C@H](O)[C@H]2O)cc1Cc1ccc(-c2ccc(F)cc2)s1 — urinary sodium excretion change (Japanese type 2 diabetes patients; 25 mg, day 1, 24 h urine collection; reference: baseline): 29.7 mEq
CCN1/C(=C/C(C)=O)Sc2ccc(F)cc21 — QT interval (cynomolgus monkey; oral, 30 mg/kg, 1 h post-dose): 250 ± 23 ms
CC(C)(C(=O)N1CCOc2c(C#N)cncc2C1)C(F)F — accumulation ratio Cmax (human, both sexes, plasma; oral, 20 mg once daily, 14 days, multiple ascending dose; reference: day 14 over day 1): 1.06
COc1ccccc1NC(=O)CSc1nnc(-c2ccc([N+](=O)[O-])cc2)n1-c1ccccc1 — logP (octanol/buffer; pH 11, known kinase inactives set): 3.69
COc1ccnc(C(=O)NC(CO)C(=O)O)c1O (racemic) — DT50 water (Swiss Lake sand sediment, aerobic dark; 20 °C): 30.2 days
CCOc1c([C@H](C)n2nc(C)c3c(N)ncnc32)cc(Cl)c(F)c1[C@@H]1CNC(=O)C1 — observations with HR above 100 bpm (ECG; previously treated B-cell malignancy patients; oral, 20 mg once daily, baseline below thresholds): 0%
Cn1c(=O)c2[nH]cnc2n(C)c1=O — CSF concentration (human, both sexes, cerebrospinal fluid; dose not given, median): 43.9 nM
C[C@H]1Oc2cc(cnc2N)-c2c(nn(C)c2C#N)CN(C)C(=O)c2ccc(F)cc21 — dose-normalised AUClast (human patients, plasma; oral, dose not given, cycle 2 day 1, median, added: avelumab): 45 ng·h/mL/mg
CC[C@@](O)(c1cnc(C(F)(F)F)c(Cl)c1)c1c2ccn(C3CC3)c(=O)c2nn1C — CLint,u (rat Sprague-Dawley male, blood; intravenous, 1 mg/kg): 27.3 mL/min/kg
O=C(Nc1cc(C2CCCCC2)[nH]n1)c1ccc(Br)cc1 — logP (octanol/buffer, 40 mM buffer; pH 11): 4.64
O=c1oc2c(O)c(O)cc3c(=O)oc4c(O)c(O)cc1c4c23 — detection in serum (broiler chickens, serum; oral, in feed, 2000 mg/kg feed, chestnut tannin diet): not detected
O=C(Cc1ccccc1[N+](=O)[O-])Nc1ccccc1C(=O)N1CCOCC1 — logP (octanol/buffer; pH 11, known kinase inactives set): 1.19
N#Cc1ccc2c(c1)[C@H]1CCCN(C(=O)c3ccc4[nH]cnc4c3)[C@H]1C2 — cortisol level change (human; 10 mg, day 7; reference: baseline): -176 nmol/L
O=C(OC(C(F)(F)F)C(F)(F)F)N1CCN(Cc2cccc(Oc3ccccc3)c2)CC1 — Ktrans (PET blocking study; rhesus monkey, brain CB; 0.01 mg/kg, compound pretreatment, added: [18F]T-401 tracer): 0.0061 min⁻¹
O=C(Nc1nc2cccc(-c3ccc(CN4CCS(=O)(=O)CC4)cc3)n2n1)C1CC1 — patients with Constipation (rheumatoid arthritis patients; oral, 100 mg twice daily, 4 weeks, TEAE regardless of relatedness): 0%
COC(=O)c1ccccc1-c1c2ccc(=N)cc-2oc2c1ccc1cccc(O)c12.Cl — emission maximum (12.5 mM aqueous NaOH; pH 12.1, 10% DMSO): 770 nm
O=S(=O)(c1ccc(-c2ccc3nccc(Nc4ccncn4)c3c2)cc1)N1CCOCC1 — concentration (female BALB/c mouse, plasma; intraperitoneal, 10 mg/kg, 24 h): 0 ng/mL
CC[C@H](C)CCCCC(=O)N[C@@H](CCN)C(=O)N[C@H](C(=O)N[C@@H](CCN)C(=O)N[C@H]1CCNC(=O)[C@H]([C@@H](C)O)NC(=O)[C@H](CCN)NC(=O)[C@H](CCN)NC(=O)[C@H](CC(C)C)NC(=O)[C@@H](Cc2ccccc2)NC(=O)[C@H](CCN)NC1=O)[C@@H](C)O — Vz increase (long-term haemodialysis patients, plasma; IV, 0.75 mg/kg; reference: healthy subjects): 60%
CCc1cc(C(=O)NC)c2nccc(N3CCc4c(cc(Cn5ccnc5)cc4-c4cn(C)nc4C(F)(F)F)C3=O)c2c1 — serum GGT change (Sprague Dawley rats; oral, 100 mg/kg twice daily, 7 days; reference: vehicle): -25%
N[C@H]1C(O)O[C@H](CO)[C@@H](O)[C@@H]1O (stereo partly drawn) — osmolality (aqueous solution; 5 mM, added: glucose): 3 mOsmol/kg
O=C(Nc1cnccc1Cl)N1CCN(Cc2ccc3c(c2)OC(F)(F)O3)CC1 — injection site pain incidence (multiple ascending dose; young women; 100 mg, treatment-emergent adverse events): 0%
COc1ccc(C(=O)CSc2nnc(-c3ccc(OC)c(OC)c3)n2-c2ccccc2)cc1 — logP (octanol/buffer; pH 11, known kinase inactives set): 3.72
CCCCC1=NC2(CCCC2)C(=O)N1Cc1ccc(-c2ccccc2S(=O)(=O)Nc2noc(C)c2C)c(COCC)c1 — AUC(0-inf) (healthy adult volunteers, plasma; oral, 400 mg, single dose, fasted, crushed tablet): 83000 ng·h/mL
O=C(O)CSc1nnc(Br)n1-c1ccc(C2CC2)c2ccccc12 — body weight (KM mouse, chronic hyperuricaemia model; dose not given, day 25): 37.8 g and 36.8 g and 32.6 g and 34.8 g and 41.6 g and 38.8 g
CCN(Cc1ccc(F)cc1)c1ccc(CO)c(Cl)c1 — AST (F344 rat, male, serum; oral, 100 mg/kg/day, 2 days): 1220 U/L and 109 U/L and 437 U/L
COc1ccc2c(=O)n(C)c(-c3ccccc3)nc2c1 — tissue/plasma ratio (Sprague-Dawley rat, male, lung; oral, 30 mg/kg, 0.5 h; reference: lung over plasma): 0.84
C[C@@H](O)[C@H](NC(=O)c1ccc(-c2ccc(Br)cc2)cc1)C(=O)NO — logP (octanol/buffer; pH 11): 0.91
COc1cc(Nc2ncc3c(n2)-c2ccc(Cl)cc2C(c2c(F)cccc2OC)=NC3)ccc1C(=O)O — patients with respiratory failure (cancer patients; oral, dose not given, all grades any attribution, added: pembrolizumab): 4%
O=C(N/N=C/c1ccccc1O)c1ccncc1 — stability (DMEM cell medium; 4 µM, 7 days, -80 °C, long-term storage): 102%
CCn1c(=O)c(-c2cc(NC(=O)Nc3ccccc3)c(F)cc2Br)cc2cnc(NC)cc21 — participants with drug-related TEAE (refers to: gastrointestinal disorders; healthy human, matched to moderate hepatic impairment; oral, 50 mg single dose): 0%
Cn1cc([C@H]2C[C@H]3CSC(N)=N[C@@]3(c3ccc(F)cc3F)CO2)cn1 — brain concentration (male 129/SVE mouse, brain; subcutaneous, 10 mg/kg, 1 h): 1350 nM
O=c1c(O)c(-c2ccc(O)c(OS(=O)(=O)O)c2)oc2cc(O)cc(O)c12 — CSF concentration (human, cerebrospinal fluid; concentration not given, mean): 18.1 nM
COc1cc(OC)c(NC(=O)CSc2nnc(-c3ccncc3)n2-c2ccccc2)cc1Cl — logP (octanol/buffer; pH 11): 3.11
CNC(=O)c1ccc(-c2cnc3ncc(Cc4ccc5ncccc5c4)n3n2)cc1F — subjects with adverse event (healthy human subjects; oral, 400 mg, Diarrhea, all grades, all causality, added: rifampicin 600 mg/day): 11.5%

Some of these lines once more:
CC[C@@](O)(c1cnc(C(F)(F)F)c(Cl)c1)c1c2ccn(C3CC3)c(=O)c2nn1C — CLint,u (rat Sprague-Dawley male, blood; intravenous, 1 mg/kg): 27.3 mL/min/kg
CC(C)(C(=O)N1CCOc2c(C#N)cncc2C1)C(F)F — accumulation ratio Cmax (human, both sexes, plasma; oral, 20 mg once daily, 14 days, multiple ascending dose; reference: day 14 over day 1): 1.06
COC(=O)c1ccccc1-c1c2ccc(=N)cc-2oc2c1ccc1cccc(O)c12.Cl — emission maximum (12.5 mM aqueous NaOH; pH 12.1, 10% DMSO): 770 nm
Cc1cc(NC2CCN(C(=O)OC3CCN(C(=O)/C=C/CN(C)C)C3)CC2)n2ncc(C(C)C)c2n1 (stereo not drawn) — patients with adverse event (Phase I dose escalation CTCAE v4.0, refers to: maculo-papular rash; patients with advanced solid tumours; dose not given, QD dosing any grade): 7%
O=C(O)CSc1nnc(Br)n1-c1ccc(C2CC2)c2ccccc12 — body weight (KM mouse, chronic hyperuricaemia model; dose not given, day 25): 37.8 g and 36.8 g and 32.6 g and 34.8 g and 41.6 g and 38.8 g
